Experimental data pooled from the literature.
Each line is one published result; not all experiments were run side by side. ± gives the spread as reported.
Cell line: HeLa

COc1cc2c(=O)c(-c3ccc4c(c3)OCO4)coc2c2c1OC(C)(C)C=C2
IC50 (cell growth or viability, MTT; 72 h): 6.09 µM

CC=C(C)C(=O)OC1C(O)C2(COC(C)=O)C(O)CC3(C)C(=CCC4C5(C)CCC(OC6OC(C(=O)OC)C(OC7OC(CO)C(O)C(O)C7O)C(O)C6OC6OC(CO)C(O)C(O)C6O)C(C)(CO)C5CCC43C)C2CC1(C)C (centres unmarked)
IC50 (cell growth or viability, CCK-8; 48 h): 48.7 µM

COc1cc(C(=O)c2[nH]c(N)nc2-c2cccs2)cc(OC)c1OC
IC50 (cell growth or viability, SRB): 0.036 µM

COC(=O)CNc1cc(CS(=O)(=O)c2ccc3ccccc3c2)ccc1OC
IC50 (cell growth or viability, MTS; 48 h): 0.096 µM

CC12CCC3c4ccc(OCCCOc5no[n+]([O-])c5S(=O)(=O)c5ccccc5)c(Br)c4CCC3C1CCC2O (centres unmarked)
IC50 (cell growth or viability, MTT; 48 h): 3.58 µM

O=[N+]([O-])[O-].O=[N+]([O-])[O-].[Cu+2].[Cu+2].c1ccc(-c2nc(-c3ccc4c(c3)OCO4)n[n-]2)nc1.c1ccc(-c2nc(-c3ccc4c(c3)OCO4)n[n-]2)nc1
IC50 (cell growth or viability, MTT; 24 h): 3.57 µM

CO[C@@H]1[C@@H](O[C@@H]2O[C@H](C)[C@@H](O[C@H]3C[C@@](C)(O)[C@@H](OC(=O)CC(C)C)[C@H](C)O3)[C@H](N(C)C)[C@H]2O)[C@@H](CC=O)C[C@@H](C)[C@@H](O[C@H]2CC[C@H](N(C)C)[C@@H](C)O2)/C=C/C=C/C[C@@H](C)OC(=O)C[C@H]1O
IC50 (cell growth or viability, CCK-8; 72 h): 6.23 µM

Brc1cccc(CNc2nc(NCc3ccccc3)c3ccccc3n2)c1
IC50 (ODD-Luc degradation; p97-independent substrate): 12 ± 3 µM

N#Cc1c(-c2ccc(Cl)cc2)cc(-c2cccc3ccccc23)nc1NNC(=O)Cc1ccccc1
IC50 (cell growth or viability, MTT; 72 h): 0.127 µM

Nc1nc2c(ncn2CC(=O)N[C@@H](Cc2ccccc2)C(=O)N[C@@H](Cc2ccccc2)C(=O)N[C@@H](Cc2ccc(O)cc2)C(=O)O)c(=O)[nH]1
IC50: > 500 µM

CCCCN(CCCC)CC(O)COc1c2ccoc2c(OC)c2oc(CC)cc(=O)c12 (centres unmarked)
IC50 (cell growth or viability, MTT; 72 h): 22.4 µM

O=[N+]([O-])[O-].[NH3+][Pt-2]1([NH3+])[O]C(c2ccccc2)=CC(c2ccccc2)=[O+]1 (centres unmarked)
IC50 (cell growth or viability, MTT): 6.7 µM

CC[P+](c1ccccc1)(c1ccccc1)c1ccccc1
IC50 (cell growth or viability, resazurin; 72 h): 16.1 µM

CCCCc1ccc(C(=O)O[C@H]2[C@H](C)O[C@@H](O[C@H]3[C@H](N(C)C)[C@@H](O)[C@H](O[C@H]4[C@@H](CC=O)C[C@@H](C)[C@@H](O[C@H]5CC[C@H](N(C)C)[C@@H](C)O5)/C=C/C=C/C[C@@H](C)OC(=O)C[C@@H](O)[C@@H]4OC)O[C@@H]3C)C[C@@]2(C)O)cc1
IC50 (cell growth or viability, CCK-8; 72 h): 4.22 µM

S=c1n(-c2ccccc2)c2c3ccccc3nc3[n+]2[n]1[Ir-3]12([S]3)([c]3ccc4ccccc4c3-c3sc4ccccc4[n+]31)[c]1ccc3ccccc3c1-c1sc3ccccc3[n+]12
IC50 (cell viability, MTT; dark): > 25 µM

CO[C@@H]1[C@@H](O[C@@H]2O[C@H](C)[C@@H](O[C@H]3C[C@@](C)(O)[C@@H](OC(=O)c4ccccc4)[C@H](C)O3)[C@H](N(C)C)[C@H]2O)[C@@H](CC=O)C[C@@H](C)[C@@H](O[C@H]2CC[C@H](N(C)C)[C@@H](C)O2)/C=C/C=C/C[C@@H](C)OC(=O)C[C@H]1O
IC50 (cell growth or viability, CCK-8; 72 h): 7.18 µM

Cc1c(C(=O)NNC(=O)Nc2ccc(Cl)cc2)nnn1Cc1nc2ccccc2[nH]1
IC50 (48 h): 46.2 ± 2.7 µM

COc1ccccc1C(=O)c1c(-n2c(C(=O)c3ccccc3OC)cc(Cl)c2Cl)c(Cl)c(Cl)n1C
IC50 (cell growth or viability, resazurin; 24 h): > 64 µg/mL

C[C@@H]1CC[C@@H]([C@](O)(COCc2ccccc2)Cn2cnc3ccccc32)[C@H](OCc2ccccc2)C1
IC50 (cell growth or viability, MTT; 72 h): 4 µM

O=C(Cc1ccc2ccccc2c1)N[C@H](Cc1ccccc1)C(=O)N[C@H](Cc1ccc(OP(=O)(O)O)cc1)C(=O)N[C@H](Cc1ccccc1)C(=O)N[C@H](Cc1ccc(OP(=O)(O)O)cc1)C(=O)O
IC50 (cell growth or viability, MTT): 217 µg/mL

CCC1=C(CC)C2=[N+]3C1=Cc1c(CC)c(CC)c4[n]1[Ir-3]31([n+]3ccccc3)([n+]3ccccc3)[n]3c(c(CC)c(CC)c3=CC3=[N+]1C(=C4)C(CC)=C3CC)=C2.Cl
IC50 (cell growth or viability, MTT; 72 h): 0.1 µM

C=C1C(=O)OC2C=C(C)CCC=C(C(=O)OC(C)C(C)(O)C(=O)OC3C(OC(C)=O)C(C(=O)OC)=CCCC4(C)OC4C4OC(=O)C(=C)C34)CC(OC(=O)C(C)=CC)C12 (centres unmarked)
IC50 (cell growth or viability; 48 h): 1.93 µM

COc1ccc(S(=O)(=O)Nc2ccc(CCCC(=O)O[C@H]3c4cc5c(cc4[C@@H](c4cc(OC)c(OC)c(OC)c4)[C@H]4C(=O)OC[C@@H]43)OCO5)cc2)cc1
IC50 (cell growth or viability, CCK-8; 24 h): 40.8 µM

N=C(N)NCCC[C@@H]1NC(=O)[C@H](CCCCN)NC(=O)[C@@H](Cc2ccc(O)cc2)NC(=O)[C@H](CC(=O)O)NC(=O)CNC1=O
IC50 (cell growth or viability, MTT; 48 h): > 100 µM

O=C(CN1C(=O)NC(c2ccccc2)(c2ccccc2)C1=O)N/N=C/c1ccccc1
IC50 (cell growth or viability, resazurin; 24 h): 170 µM

COc1ccc(C(C)(O)C(C)(C)C(=O)O)cc1 (centres unmarked)
IC50 (cell growth or viability): 126 µM

COC(=O)c1ccc(-n2nc(C(F)(F)F)cc2-c2cc(OC)c(OC)c(OC)c2)cc1
IC50 (cell growth or viability, SRB): 5.5 µM

O=C1c2ccc(O)cc2OC1(O)Cc1ccc(O)c(O)c1 (centres unmarked)
IC50 (cell growth or viability, MTT; 72 h): > 400 µM

CC(=O)OC[C@H]1O[C@@H](NC(=O)NC(=O)[C@@H](C)Cc2ccc(C(C)C)cc2)[C@H](OC(C)=O)[C@@H](OC(C)=O)[C@@H]1OC(C)=O
IC50 (cell growth or viability; 96 h): 39 µM

CN1CCCC1CCO/N=C1/C=C2CCC3C(CC[C@]4(C)/C(=C/c5ccccn5)CCC34)[C@@]2(C)CC1 (some centres unmarked)
IC50 (cell growth or viability, MTT; 72 h): > 100 µM

O=C(Nc1ccc(-c2ccc(OCCN3CCOCC3)cc2)cn1)NS(=O)(=O)c1ccccc1
IC50 (cell growth or viability, CCK-8; 48 h): > 4 µM

C[C@@H]1CC[C@@H]([C@@](O)(CNCc2ccc(F)cc2)COCc2ccc(F)cc2)[C@H](OCc2ccc(F)cc2)C1
IC50 (cell growth or viability, MTT; 72 h): 2.7 µM

COC(=O)[C@@H](NC(=O)[C@@H](NC(=O)[C@@H](NC(=O)OC(C)(C)C)C(C)C)C(C)C)C(C)C
IC50 (cell growth or viability, SRB): 14 µM

COc1cc(CN2CCN(c3cccc(Cl)c3)CC2)c2cc3[n+](cc2c1O)CCc1cc2c(cc1-3)OCO2
IC50 (cell growth or viability, SRB; 48 h): 3.98 µg/mL

CO[C@@H]1[C@@H](O[C@@H]2O[C@H](C)[C@@H](O[C@H]3C[C@@](C)(O)[C@@H](OC(=O)NC4CCCCC4)[C@H](C)O3)[C@H](N(C)C)[C@H]2O)[C@@H](CC=O)C[C@@H](C)[C@@H](O[C@H]2CC[C@H](N(C)C)[C@@H](C)O2)/C=C/C=C/C[C@@H](C)OC(=O)C[C@H]1O
IC50 (cell growth or viability, CCK-8; 72 h): > 50 µM

CC(=O)OC[C@H]1O[C@@H](NC(=O)/C=C/c2ccc(-c3ccccc3)cc2)[C@H](OC(C)=O)[C@@H](OC(C)=O)[C@@H]1OC(C)=O
IC50 (cell growth or viability; 96 h): ≥ 250 µM

CCCN1CCN(CC(=O)N2CCN(c3cc(C)nc4ncnn34)CC2)CC1
IC50 (cell growth or viability, MTT): 45.7 µM

O=C(/C=C/c1ccc(-c2ccccc2)cc1)NC(=O)N[C@@H]1O[C@H](CO)[C@@H](O)[C@H](O)[C@H]1O
IC50 (cell growth or viability; 96 h): > 250 µM

C[C@@H](NC(=O)Cc1ccc(-c2ccc(OCCN3CCOCC3)cc2)cn1)c1ccccc1
IC50 (cell growth or viability, CCK-8; 48 h): > 4 µM

Cc1ccc(/C=N/NC(=O)c2cc3cc(Nc4nccc(-c5cccnc5)n4)ccc3[nH]2)cc1
IC50 (cell growth or viability, MTT; 48 h): 6.43 µM

COC(=O)[C@]12CS[C@H](c3ccccc3)N1C(=O)/C(=C(\O)CCc1ccccc1)C2=O
IC50 (cell growth or viability, resazurin): 31.3 µg/mL

Nc1ccn(CC(=O)N[C@@H](Cc2ccccc2)C(=O)N[C@@H](Cc2ccccc2)C(=O)N[C@@H](Cc2ccc(O)cc2)C(=O)O)c(=O)n1
IC50: > 500 µM

[Cl][Pt-]1([Cl])[S]C(Nc2ccccc2)=N[N+]1=Cc1cccs1
IC50 (cell growth or viability): 37 µM

CCCCCCCCCCCCCCOc1c(O)cc(C(=O)O[C@@H]2Cc3c(O)cc(O)cc3O[C@@H]2c2cc(O)c(O)c(O)c2)cc1O
IC50 (cell growth or viability, CCK-8; 24 h): 27.1 µM

Nc1ccn([C@@H]2O[C@H](CSSc3ccccn3)[C@@H](O)[C@H](F)[C@H]2O)c(=O)n1
IC50 (cell growth or viability): 369 µM

Nc1ccc(CNC(=O)Cc2ccc(-c3ccc(OCCN4CCOCC4)cc3)cn2)cc1
IC50 (cell growth or viability, CCK-8; 48 h): 0.63 µM

COc1cc(/C=C/C(=O)NCCCCCCNC2=C3C[C@@H](C)C[C@H](OC)[C@H](O)[C@@H](C)/C=C(\C)[C@H](OC(N)=O)[C@@H](OC)/C=C\C=C(/C)C(=O)NC(=CC2=O)C3=O)ccc1O
IC50 (cell growth or viability, MTT; 72 h): 0.341 µM

Clc1ccc(C=[N+]2N=C(Nc3ccccc3)[S][Pt-]2([Cl])[Cl])s1
IC50 (cell growth or viability): 37 µM

C[C@@H]1CC[C@@H]([C@](O)(CNCc2ccccc2F)COCc2ccccc2)[C@H](OCc2ccccc2)C1
IC50 (cell growth or viability, MTT; 72 h): 2.4 µM

Cc1cc(/C=C/C#N)cc(C)c1Oc1cc(Nc2ccc(C#N)cn2)nc2ccncc12
IC50 (48 h): > 120 µM

For quick reference, copied from above:
Cc1ccc(/C=N/NC(=O)c2cc3cc(Nc4nccc(-c5cccnc5)n4)ccc3[nH]2)cc1
IC50 (cell growth or viability, MTT; 48 h): 6.43 µM

COC(=O)[C@]12CS[C@H](c3ccccc3)N1C(=O)/C(=C(\O)CCc1ccccc1)C2=O
IC50 (cell growth or viability, resazurin): 31.3 µg/mL

Nc1ccn(CC(=O)N[C@@H](Cc2ccccc2)C(=O)N[C@@H](Cc2ccccc2)C(=O)N[C@@H](Cc2ccc(O)cc2)C(=O)O)c(=O)n1
IC50: > 500 µM

[Cl][Pt-]1([Cl])[S]C(Nc2ccccc2)=N[N+]1=Cc1cccs1
IC50 (cell growth or viability): 37 µM
